Literature values, collected from citations in different studies.
Each line is one published result; not all experiments were run side by side. Numbers after ± are the reported error.

Cc1ccc([N+](=O)[O-])cc1S(=O)(=O)N(C)/N=C/c1cnc2ccc(Br)cn12 — IC50 (PI4KIIIα; enzyme activity, inhibitor; with: 10 µM ATP): > 100 µM
C[C@]12CC[C@@H]3c4ccc(O)cc4CC[C@H]3[C@@H]1CC[C@@H]2OC(=O)c1ccccc1 — EC50 (HT-22; cell protection; with: glutamate 20 mM): 9.03 µM
Oc1cccc(-c2nc(N3CCOCC3)c3oc4ncccc4c3n2)c1 — IC50 (PI4KIIα; enzyme activity, inhibitor; with: 10 µM ATP): > 100 µM
O=P(O)(O)OC[C@H]1O[C@H](OP(=O)(O)OP(=O)(O)O)[C@H](O)[C@@H]1O — kcat (HGPRT Trypanosoma cruzi; substrate, refers to: GMP; 20 to 215 µM): 32 s⁻¹
CC(=O)O[C@H]1Cc2ccccc2N(C(N)=O)c2ccccc21 — focal seizure threshold increase (afterdischarge threshold; mouse kindling model; i.p., 300 mg/kg, 15 min before stimulation): > 1320%
C[C@]12CC[C@@H]3c4cc(C56CC7CC(CC(C7)C5)C6)c(O)cc4CC[C@H]3[C@@H]1CCC2=O — EC50 (HT-22; cell protection; with: glutamate 10 mM): 0.159 µM
Cc1cc(C(C)Nc2ccccc2)c2oc(-c3ccncc3)cc(=O)c2c1 (stereo not drawn) — IC50 (ATM; kinase activity, inhibitor; with: 10 µM ATP): > 100 µM
CC(=O)c1cccc(N[C@H]2[C@H](N)[C@@](NC(=O)N(C)C)([C@H](C)O)[C@@](C)(O)[C@@]2(O)COC(=O)c2c(C)cccc2O)c1 — GI50 (HCT-15 (colon cancer); cell growth; NCI screen data): 0.03 µM
C[C@]12CC=C3c4ccc(O)cc4CC[C@H]3[C@@H]1CC[C@@H]2O — EC50 (HT-22; cell protection; with: iodoacetic acid 40 µM): 1.72 µM
Cc1cc([C@H](C)Nc2ccccc2)c2oc(N3CCOCC3)cc(=O)c2c1 — IC50 (ATR; kinase activity, inhibitor; with: 10 µM ATP): > 100 µM
Cc1ccc(C(=O)Nc2ccc(S(=O)(=O)O)c3cc(S(=O)(=O)O)cc(S(=O)(=O)O)c23)cc1NC(=O)c1cccc(NC(=O)Nc2cccc(C(=O)Nc3cc(C(=O)Nc4ccc(S(=O)(=O)O)c5cc(S(=O)(=O)O)cc(S(=O)(=O)O)c45)ccc3C)c2)c1 — IC50 (Trypanosoma brucei gambiense; cell growth; IL1922): 0.064 ± 0.0018 µM
C[C@]12CC[C@@H]3c4ccc(O)cc4CC[C@H]3[C@@H]1CC[C@@H]2O — EC50 (HT-22; cell protection; with: glutamate 20 mM): 1.98 µM
